Measured values collected from several papers.
Numbered parts are unrelated; each lists some results of a single study. Changes are numbered by the printed parent chain.

Block 1 — observed: peptide-MHC binding; form: peptide; concentration: concentration not given; measurement: binding
Target: HLA class I histocompatibility antigen, C alpha chain, allele C*04:01 (Homo sapiens, UniProt P10321)
LYDAVAALF: active
SYMMDDLELI: inactive
YYIIETEHL: inactive
KLMDVVYSI: inactive

Block 2 — target: BATF, bZIP domain (human); technique: DHFR protein complementation; medium: yeast; relative to: wild-type JUN-FOS pair; direction: higher = stronger binding; measurement: binding fitness
Notes: single substitutions, most at no-binding floor
Starting sequence: JUN, bZIP domain (human); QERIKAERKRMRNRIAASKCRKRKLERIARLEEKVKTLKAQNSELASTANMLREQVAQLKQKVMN; partner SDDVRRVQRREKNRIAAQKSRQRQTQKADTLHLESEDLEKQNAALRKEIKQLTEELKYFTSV
A57I: -0.206 natural log
Q55V: -0.276 natural log
L38Y: -0.763 natural log
L31F: -0.183 natural log
T37H: 0.129 natural log
E32M: -0.174 natural log
S43L: -0.0196 natural log
M51K: 0.0627 natural log

Block 3 — technique: EMSA with sequencing; form: double-stranded DNA, one strand shown; medium: in vitro; concentration: 10 and 20 nM; relative to: negative control set to 0; direction: higher = stronger binding; measurement: normalised bound fraction
Target: Hepatocyte nuclear factor 3-alpha (Foxa1, Mus musculus, UniProt P35582, residues 1-468, full length assumed)
Notes: whole designed probe, mean of two concentrations, ends assumed
Shared flanks, not repeated: GTGAGCGGTGCCCATTGATGGGGAAC … TTTCACTGGGATCGTGGGGAC
Target sequence (chain): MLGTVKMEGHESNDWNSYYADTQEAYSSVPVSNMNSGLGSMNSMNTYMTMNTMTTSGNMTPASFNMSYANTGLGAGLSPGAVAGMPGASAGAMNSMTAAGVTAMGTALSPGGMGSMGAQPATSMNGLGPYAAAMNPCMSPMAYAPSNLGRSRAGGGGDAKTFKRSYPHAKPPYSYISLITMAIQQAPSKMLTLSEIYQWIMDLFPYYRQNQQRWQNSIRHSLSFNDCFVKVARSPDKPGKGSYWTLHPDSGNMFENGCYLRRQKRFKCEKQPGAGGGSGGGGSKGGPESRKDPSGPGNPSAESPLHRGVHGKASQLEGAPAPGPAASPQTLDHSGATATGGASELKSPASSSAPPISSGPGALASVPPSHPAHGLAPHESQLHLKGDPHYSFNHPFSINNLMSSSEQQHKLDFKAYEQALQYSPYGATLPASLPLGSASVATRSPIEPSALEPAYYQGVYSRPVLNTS
TCCATAAGGCACAAACTTTCAGAGACAGCAGAGCACACAAGCTTCTAGGACAAGAGCCAGGAAGAAACCACCGGAAGGAACCATCTCACTGTGTGTAAACATGACTTCCAAGCTGGCCGTGGCTCTCTTGGCAGCCTTCCTGATTTCTGCAGCTCTGTGTGAAGGTAAGCACATCTTTCTGACCTACAGCGTT: 0.239 ratio
AAATGCCAACGTGTATTGGACTTCCCTCTAGTGGTTACATGCAAAATGACAAGCCTATAGTTCCCAAACAGAATGTTGTGTTGTTCTCTACACAGATTACTTAGCAATCAGCAAAATTACTGTGCTTCACTCCATGTACCTTCCATTCACACACTTGGCAAACACCATATCTTCCATGATATTCTCCTGTATC: 0.0814 ratio
AAATGGAAAGTACTTTGAAAAGTTTGAAGCTGTATACAATAGCCATCTGTTGTCCTCAAAGTGAGTGGTCCTTGGGGGCAGGCTTGCTACAAAGTAATCTACCTGGGGCAAAAGGTTTTAGTTGTTTAGACAAGAACACACTGCCTTTCATCAGTGTGGGAAAGAACTGGATCGGGAATTAGACCACGTGGGC: 0.0589 ratio
TCTTGGTCTGCAGTCTACCCCATGTCATTGTCCCTTGGGTTTTCACTTATACACTTGGCTTTCTGTCCATGATTTAAGTAAACAAAAAAAAAGTAAACATGGCAGCACAATGTTAATAGGCATGTCTACCTGCTGCTCTCCCAAGCCCAGCCTTTTCACACTGAAGTCATGCTAGGAGCTAGATGTGTTTGTC: 0.534 ratio
GGAAGGAGAATATCTCTGCTACTTTATTTTTGTGTATTAGCTGATTGTTTCACGTGAAGAATGCTCACATGGTTTTTGCAATGTGCTGGCATAAGATGACATATTGATGCGTAGATGTGTTTGTGTGTTTGGTTTTAGGCAAATGGCACCAAGGCTTGAACTGCGACTCCCGAAGTGACCAGTGCCACCATCC: 0.0157 ratio
TTCCACTTCCGGTCCGACTTCTAGCACCTCCCCTTATGGACTGTTGATATTGCGCATGCTCTAAATTAACTTGGAAGCCAATTTCAGCCCACAGTCATCTGGGAGCACACACATATTTAGAGACATCGTGCAGTTTCCGTAATCGGCGCTCACGGGCAGAGAATATAACCGCGCCCTTATGGTGTTTATTTGT: 0.202 ratio
TAACACACTAGGGTATTATTTGTTCTGTCCAATGCATCTTGGATATTCTTCCTCTAAAGACAAGAACTATCTTTTGGTTCCATCTTTGGGTCTTTGTTTACTTTGTGTCACTGGTGAGTATTTGCAGCTCTTTGGGAAAAACTCTTTTCTTAACCATAATGAATTGCTTTATAATTTGCATAGCTTTGCAAAG: 0.549 ratio
AAAAGCCAACTAAATATTTATTTCAAAAGTAGTTCATATTACATGTAAAGAATGGTTTAAAAAAAATTCTTACTTAATCCCTGGTTTATGTGAGTAATTTTGAATTCTTAAGAATCCCATTTCCCAAATGGCATCATAATATTTTGTAATCATTTCTTGCCACAGGTCATATATCGTGGATAGTTCTGTATGT: 0.0173 ratio

Block 4 — target: CCND1, cyclin fold, Cln2 fusion (human); technique: yeast growth competition, sequencing; medium: yeast; notes: weak parent motif; relative to: not given; direction: higher = stronger binding; measurement: normalised enrichment score; starting sequence: viral docking peptide; TSVRRALFTGGSD
G10E: 1.86
T9F: 1.24
V3D: 0.0267
T1A: 0.808
S2G: 0.404
F8Q: 0.0253
S2Q: 0.194
T9V: 0.593
G11S: 0.452
L7T: 0.151
F8R: 0.00762
V3Y: 0.107
A6L: 0.379
L7N: 0.2
G11K: 0.406
R4M: 0.414
S2K: 0.392

Other studies, line by line — technique: cross-linking MS
NOA1 (Homo sapiens, UniProt Q8NC60)  cross-linked residues (UBXN4 (Homo sapiens, UniProt Q92575); cell fractions; added: DSSO): S369 to K269
HSPA4L (Homo sapiens, UniProt O95757)  interaction screen (HSPA1B (Homo sapiens, UniProt P0DMV9); hits only): cross-linked
COPB2 (Homo sapiens, UniProt P35606)  cross-linked residues (COPA (Homo sapiens, UniProt P53621); cell fractions; added: DHSO): E832 to E714
RPN1 (Homo sapiens, UniProt P04843)  interaction screen (STT3A (Homo sapiens, UniProt P46977); hits only): cross-linked

A few entries again (block 2):
Q55V: -0.276 natural log
L38Y: -0.763 natural log
L31F: -0.183 natural log
T37H: 0.129 natural log
